Results pooled from the literature.
Numbers after ± are the reported error.
Protein farnesyltransferase: Protein farnesyltransferase (Homo sapiens, UniProt P49354+P49356)
CXCR4: C-X-C chemokine receptor type 4 (CXCR4, Homo sapiens, UniProt P61073)
GPR17: Uracil nucleotide/cysteinyl leukotriene receptor (GPR17, Homo sapiens, UniProt Q13304)
Enoyl-[acyl-carrier-protein] reductase [NADPH] FabI: Enoyl-[acyl-carrier-protein] reductase [NADPH] FabI (Staphylococcus aureus, UniProt Q6GI75)
UGT1A9: UDP-glucuronosyltransferase 1A9 (UGT1A9, Homo sapiens, UniProt O60656)
SLC10A1: Hepatic sodium/bile acid cotransporter (SLC10A1, Homo sapiens, UniProt Q14973)
T1: RNA aptamer minimized 9-12; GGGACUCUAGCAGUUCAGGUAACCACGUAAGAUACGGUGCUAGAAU
T2: RNA aptamer minimized; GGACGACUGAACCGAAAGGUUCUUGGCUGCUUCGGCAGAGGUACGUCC

C=CC(C)=CCC=C(C)C
remaining 1-NPN fluorescence (Chilo suppressalis CSP2; binding, competitive ligand, fluorescence competitive binding; highest concentration tested, pH 7.4, protein 2 µM, added: 1-NPN 2 µM; reference: no ligand): 85.4 ± 1.71%

CC[C@H](C)[C@H](NC(=O)[C@H](CCCCN)NC(=O)[C@H](CCC(N)=O)NC(=O)[C@H](CCCCN)NC(=O)[C@H](CC(C)C)NC(=O)[C@H](C)NC(=O)[C@H](C)NC(=O)[C@@H](NC(=O)[C@H](CCC(N)=O)NC(=O)[C@H](CCCCN)NC(=O)[C@H](CCCCN)NC(=O)[C@H](CC(C)C)NC(=O)[C@H](C)NC(=O)[C@H](C)NC(=O)[C@@H](NC(=O)[C@H](CCC(N)=O)NC(=O)[C@H](CCC(N)=O)NC(=O)[C@H](CCCCN)NC(=O)[C@H](CC(C)C)NC(=O)[C@H](C)NC(=O)[C@H](Cc1ccc(O)cc1)NC(=O)[C@H](C)NC(=O)[C@H](CCCCN)NC(=O)[C@H](CCC(N)=O)NC(=O)[C@H](CCCCN)NC(=O)[C@H](CC(C)C)NC(=O)[C@H](C)NC(=O)[C@H](C)NC(=O)[C@H](C)NC(=O)[C@H](CCCCN)NC(C)=O)[C@@H](C)CC)C(C)C)C(=O)N[C@@H](C)C(=O)N[C@@H](C)C(=O)N[C@@H](CC(C)C)C(=O)N[C@@H](CCCCN)C(N)=O
Tm (Fos-related antigen 1 (FOSL1, Homo sapiens, UniProt P15407); heterodimer unfolding, CD thermal denaturation; 150 µM total peptide, pH 7): 64 °C

CNC(=O)c1cc(Cl)cc(C)c1NC(=O)c1cc(Br)nn1-c1ncccc1Cl
EC2X (ryanodine receptor (Daphnia magna, UniProt A0A164M377); [3H]ryanodine binding, activator; microsomes; 16 h, 25 °C, 200% of control binding): 0.48 µM

CRLL
relative fluorescence increase (Protein farnesyltransferase; enzyme activity, substrate, fluorimetric; peptide; 3 µM, 30 min, added: 9 µM farnesyl diphosphate; reference: dansyl-GCVLS (set to 1.0)): < 0.05

CN(Cc1ccc(CN(C)c2ccc(F)cc2)cc1)c1ccc(F)cc1
lowest effective concentration (CXCR4; binding, competition binding; MDA-MB-231; semi-quantitative screen, added: biotinylated TN14003): 100 nM

Cl.Cl.Nc1ncnc2c1ncn2[C@@H]1O[C@H](C(=O)N2CCN(CC(=O)Nc3cccc4c3CNC4=O)CC2)[C@@H](O)[C@H]1O
PARP1 bound to DNA (Poly [ADP-ribose] polymerase 1 (PARP1, Homo sapiens, UniProt P09874); DNA binding, fluorescence polarization DNA competition; 100 µM, 200 s, added: unlabeled competitor DNA 2 µM): 63 ± 2%

CC(C)C[C@H](NC(=O)[C@H](C)NC(=O)[C@@H](N)CO)C(=O)N[C@@H](CC(C)C)C(=O)N[C@@H](CCCNC(=N)N)C(=O)N[C@@H](CC(N)=O)C(=O)O
binding free energy (Proteinase-activated receptor 1 (F2R, Homo sapiens, UniProt P25116); AFM force spectroscopy; proteoliposomes): -5.73 kcal/mol

CCCCCCCCCCCC=O
remaining 1-NPN fluorescence (Chilo suppressalis CSP2; binding, competitive ligand, fluorescence competitive binding; highest concentration tested, pH 7.4, protein 2 µM, added: 1-NPN 2 µM; reference: no ligand): 41.8 ± 1.38%

CQLL
relative fluorescence increase (Protein farnesyltransferase; enzyme activity, substrate, fluorimetric; peptide; 3 µM, 30 min, added: 9 µM farnesyl diphosphate; reference: dansyl-GCVLS (set to 1.0)): 0

CNc1ncnc2c1ncn2[C@H]1C[C@H](OP(=O)(O)O)[C@@H](COP(=O)(O)O)O1.N.N
breakthrough time (GPR17; frontal affinity chromatography-MS; immobilized on IAM column; 1 µM, compound mixture): 7.1 min

O=C(NCc1ccc(CNS(=O)(=O)c2ccc(F)cc2)cc1)c1ccc(CNc2ncccn2)cc1
lowest effective concentration (CXCR4; binding, competitive inhibitor, competitive binding; MDA-MB-231; semi-quantitative rhodamine readout, added: biotinylated TN14003): > 1000 nM

N.N.N.N.Nc1nc(C#Cc2ccccc2)nc2c1ncn2[C@@H]1O[C@H](COP(=O)(O)OP(=O)(O)OP(=O)(O)O)[C@@H](O)[C@H]1O
breakthrough time (GPR17; frontal affinity chromatography-MS; immobilized on IAM column; 1 µM, compound mixture): 29.6 min

CCCc1ccc(Oc2ccccc2)c(O)c1
dissociation rate constant (Enoyl-[acyl-carrier-protein] reductase [NADPH] FabI; enzyme activity, inhibitor, progress curve kinetics): 0.99 h⁻¹

O=C(O)c1ccc(NC(c2ccc3ccccc3c2O)c2c(F)cc(Br)cc2F)cc1 (stereo not drawn)
remaining activity (CAAX prenyl protease 2 (Homo sapiens, UniProt Q9Y256); enzyme activity, inhibitor; 10 µM): < 40%

COc1cc(-c2oc3cc(O)cc(O)c3c(=O)c2O)ccc1O
Vmax (UGT1A9; substrate; pH 7.4, 37 °C): 12000 pmol/mg/min

O=C1NC(=O)C(c2ccccc2)(c2ccccc2)N1
uptake inhibition (Monocarboxylate transporter 8 (SLC16A2, Rattus norvegicus, UniProt Q8K1P8); substrate, Xenopus oocytes; 9.09 µM, added: inhibitor 400 µM; reference: water-injected oocytes): no effect

Ac-EVVYLIIRACARRAQRRSNP-NH2 (N-acetyl, C-amide)
koff (Calmodulin-1 (CALM1, Homo sapiens, UniProt P0DP23, D23A/D59A); Ca2+ dissociation EF3, stopped flow; peptide; 10 µM, pH 7.0, 21 °C, added: CaM12 mutant): 3.1 ± 0.1 s⁻¹

CC1(C)[C@H](C(=O)O[C@H](C#N)c2cccc(Oc3ccccc3)c2)[C@@H]1C=C(Br)Br
EC20 (Voltage-gated sodium channel (Blattella germanica, UniProt O01306); tail current modification, two-electrode voltage clamp; Xenopus oocytes, coexpressed tipE; 10 min, pH 7.5, 20-22 °C, 100 depolarizing pulses -120 to -10 mV): 20 nM

Cc1ccc(S(=O)(=O)NCc2ccc(CNC(=O)c3ccc(F)cn3)cc2)cc1
lowest effective concentration (CXCR4; binding, competitor, rhodamine fluorescence; MDA-MB-231; semi-quantitative screen, added: biotinylated TN14003): 1000 nM

Cc1ncc([N+](=O)[O-])n1CCO
taurocholate uptake (SLC10A1; inhibitor; HEK293 expressing NTCP; 100 µM, 5 min, added: taurocholate 10 µM; reference: no compound): 84.3 ± 2.7%

Nc1nc2c(ncn2[C@@H]2O[C@H](COP(=O)(O)OP(=O)(O)OP(=O)(O)O)[C@@H](O)[C@H]2O)c(=O)[nH]1
Kd (T1, RNA aptamer minimized 9-12; ultrafiltration; apparent, added: GTP): 300 nM

c1cc(CN2CCCC2)nc(CN2CCCC2)c1
lowest effective concentration (CXCR4; binding, competition binding; MDA-MB-231; semi-quantitative screen, added: biotinylated TN14003): 1 nM

CCC/C=C/COC(C)=O
remaining 1-NPN fluorescence (Chilo suppressalis CSP2; binding, competitive ligand, fluorescence competitive binding; highest concentration tested, pH 7.4, protein 2 µM, added: 1-NPN 2 µM; reference: no ligand): 75.6 ± 1.12%

COC(=O)C1=C(C)NC(C)=C(C(=O)OC(C)C)C1c1cccc2nonc12 (stereo not drawn)
taurocholate uptake (SLC10A1; inhibitor; HEK293 expressing NTCP; 100 µM, 5 min, added: taurocholate 10 µM; reference: no compound): 59.3 ± 3.2%

CLLL
relative fluorescence increase (Protein farnesyltransferase; enzyme activity, substrate, fluorimetric; peptide; 3 µM, 30 min, added: 9 µM farnesyl diphosphate; reference: dansyl-GCVLS (set to 1.0)): < 0.05

CCCCC#Cc1cn([C@@H]2O[C@H](COP(=O)(O)OP(=O)(O)O)[C@@H](O)[C@H]2O)c(=O)[nH]c1=O
breakthrough time (GPR17; frontal affinity chromatography-MS; immobilized on IAM column; 1 µM, compound mixture): 4.83 min

CNPL
relative fluorescence increase (Protein farnesyltransferase; enzyme activity, substrate, fluorimetric; peptide; 3 µM, 30 min, added: 9 µM farnesyl diphosphate; reference: dansyl-GCVLS (set to 1.0)): 0

CN(C)c1ccc2c(-c3ccc(C(=O)O)cc3C(=O)[O-])c3ccc(=[N+](C)C)cc-3oc2c1
Kd (T2, RNA aptamer minimized; fluorescence quenching titration; pH 7.5, 25 °C, NaCl 15 mM, no Mg2+): 516 nM

CCCCCCCC[N+](=O)[O-]
substrate inhibition constant (Nitroalkane oxidase (Fusarium oxysporum, UniProt Q8X1D8); oxygen consumption; pH 8.0, 30 °C): 8.3 ± 3.7 mM

N=C(N)NCCC[C@@H]1NC(=O)CNC(=O)[C@H](CC(N)=O)NC(=O)[C@@H]2CCCN2C(=O)[C@@H](N)CSSC[C@@H](C(=O)O)NC1=O
remaining activity (Aminopeptidase N (Rattus norvegicus, UniProt P15684); enzyme activity, inhibitor, absorbance; 50 µM, pH 7.8, with preincubation): ~11%

CCVL
relative fluorescence increase (Protein farnesyltransferase; enzyme activity, substrate, fluorimetric; peptide; 3 µM, 30 min, added: 9 µM farnesyl diphosphate; reference: dansyl-GCVLS (set to 1.0)): 0.11

CCC/C=C/CO
remaining 1-NPN fluorescence (chemosensory protein 1 (Chilo suppressalis, UniProt V9PY22); binding, competitive ligand, fluorescence competitive binding; highest concentration tested, pH 7.4, protein 2 µM, added: 1-NPN 2 µM; reference: no ligand): 89 ± 2.02%

CC[C@H](C)[C@H](NC(=O)[C@H](C)NC(=O)[C@H](CCCNC(=N)N)NC(=O)[C@H](Cc1c[nH]cn1)NC(=O)[C@@H](NC(=O)[C@H](CCCNC(=N)N)NC(=O)[C@@H]1CCCN1C(=O)[C@@H](NC(=O)[C@H](CCC(N)=O)NC(=O)CN)C(C)C)[C@@H](C)O)C(=O)N[C@H](C(=O)N[C@@H](CC(C)C)C(=O)N[C@@H](C)C(=O)N[C@@H](CC(=O)O)C(=O)N[C@@H](Cc1c[nH]cn1)C(=O)N[C@H](C(=O)N[C@@H](CS)C(=O)N[C@@H](CCC(N)=O)C(=O)N[C@H](C(=O)N[C@H](C(=O)N[C@H](C(=O)N[C@@H](CCC(N)=O)C(=O)N[C@@H](CC(=O)O)C(=O)N[C@@H](Cc1ccccc1)C(=O)N[C@@H](C)C(=O)N[C@@H](CCCNC(=N)N)C(=O)O)[C@@H](C)O)[C@@H](C)CC)[C@@H](C)CC)[C@@H](C)CC)[C@@H](C)O
IC50 fold change (Nuclear receptor subfamily 1 group D member 1 (NR1D1, Homo sapiens, UniProt P20393); NCoR peptide binding, competitor, TR-FRET; 1 h, added: labelled NCoR 2040-2065 peptide; reference: mutant over wild-type peptide): 2.5

O=c1c(O)c(-c2ccc(O)cc2)oc2ccccc12
Vmax (UGT1A9; substrate; pH 7.4, 37 °C): 1800 pmol/mg/min

CCCCCCCC(=O)OC[C@H](COP(=O)(O)O[C@@H]1[C@H](O)[C@H](O)[C@@H](OP(=O)(O)O)[C@H](OP(=O)(O)O)[C@H]1O)OC(=O)CCCCCCC
open probability hysteresis (Potassium voltage-gated channel subfamily KQT member 3 (KCNQ3, Homo sapiens, UniProt O43525, A315T); activator, inside-out patch; HM1-CHO cells; 1 to 100 µM): no effect

CCN(CC)CCNC(=O)c1ccc(N)cc1
taurocholate uptake (SLC10A1; inhibitor; HEK293 expressing NTCP; 100 µM, 5 min, added: taurocholate 10 µM; reference: no compound): 84.8 ± 6.7%

CC[C@H](C)[C@H](NC(=O)[C@@H](NC(=O)[C@H](C)NC(=O)[C@H](Cc1ccc(OP(=O)(O)O)cc1)NC(=O)[C@H](CCC(=O)O)NC(=O)[C@@H](NC(=O)[C@H](CCC(N)=O)NC(=O)[C@H](CCC(=O)O)NC(C)=O)[C@@H](C)O)[C@@H](C)O)C(=O)N[C@H](C(=O)N[C@@H](Cc1ccccc1)C(=O)N1CCC[C@H]1C(N)=O)C(C)C
conformational entropy change (Tyrosine-protein phosphatase non-receptor type 11, N-SH2 domain (PTPN11, Homo sapiens, UniProt Q06124); peptide binding; concentration not given, 298 K): -19.5 J/(mol·K)

N#Cc1ccccc1Oc1ccc(Cl)cc1O
dissociation rate constant (Enoyl-[acyl-carrier-protein] reductase [NADPH] FabI; enzyme activity, inhibitor, progress curve kinetics): 0.44 ± 0.02 h⁻¹

CN1CCC[C@@H]1Cc1c[nH]c2ccc(CCS(=O)(=O)c3ccccc3)cc12
taurocholate uptake (SLC10A1; inhibitor; HEK293 expressing NTCP; 100 µM, 5 min, added: taurocholate 10 µM; reference: no compound): 104 ± 8%

O=C(O)c1cccc(/C=N/OCCCNCc2cc(=O)[nH]c(=O)[nH]2)c1
binding free energy cooperativity (Uracil-DNA glycosylase (UNG, Homo sapiens, UniProt P13051); reference: additive fragment energy): 1.3 kcal/mol

CCOc1nc2cccc(C(=O)O)c2n1Cc1ccc(-c2ccccc2-c2nnn[nH]2)cc1
taurocholate uptake (SLC10A1; inhibitor; HEK293 expressing NTCP; 100 µM, 5 min, added: taurocholate 10 µM; reference: no compound): 68 ± 7.2%

Cc1cc(Cl)ccc1N=Cc1ccc(F)c(Oc2ccccc2)c1
STD amplification factor (Catenin beta-1, armadillo repeat region (CTNNB1, Homo sapiens, UniProt P35222); STD NMR; 0.5 mM, pH 7.4, 25 °C): 3.64
